Assay results collected from several papers.
Lines come from different studies, so protocols differ. Numbers after ± are the reported error.

| Compound | test | system | conditions | half-life [h] |
| --- | --- | --- | --- | --- |
| O=C([O-])[C@H](Cc1ccccc1)N1C(=O)/C(=C\c2ccc(-c3ccc(Cl)c(Cl)c3)o2)NC1=S.[Na+] | – | CD-1 mouse, female, plasma | intraperitoneal | 2 to 3 |
| C#CCn1c(C)c(C(=O)C(=O)NC(C)(C)C#C)c(C)c1C(=O)Nc1ccc(F)c(F)c1 | – | mouse liver microsomes | 1 µM, added: ritonavir 3 µM | 1.8 |
| CCCCCOc1ccc(-c2cc(-c3ccc(C(=O)N[C@H]4C[C@@H](O)[C@@H](O)NC(=O)[C@@H]5[C@@H](O)[C@@H](C)CN5C(=O)[C@H]([C@H](O)CC(N)=O)NC(=O)[C@H]([C@H](O)[C@@H](O)c5ccc(O)c(OS(=O)(=O)O)c5)NC(=O)[C@@H]5C[C@@H](O)CN5C(=O)[C@H]([C@@H](C)O)NC4=O)cc3)no2)cc1 | – | young infants, plasma | intravenous, 7 and 10 mg/kg/day pooled, day 4, mean, repeat dosing | 11 |
| CC[C@H](C)[C@H](NC(=O)[C@H](CCCNC(=N)N)NC(=O)[C@H](CC(C)C)NC(=O)[C@@H](N)Cc1ccccc1)C(=O)N[C@@H](CCCNC(=N)N)C(=O)N1CCC[C@H]1C(=O)N[C@@H](CCCCN)C(=O)O | – | rat plasma | no protease inhibitor | 0.7 |
| CC(C)C[C@H](NC(=O)[C@H](Cc1cccc2ccccc12)NC(=O)[C@H](CNC(=O)c1ccc(F)nc1)NC(=O)[C@H](CO)NC(=O)C1CCNCC1)C(=O)N[C@@H](CC(N)=O)C(=O)N1CCC[C@H]1C(=O)N[C@H](C(N)=O)[C@@H](C)O | chemical stability | male human, serum | 1 mM, pH 7.4 | > 24 |
| CCCCCCCCCCCCCCCC(=O)NCCCC[C@H](NC(=O)[C@H](CCC(=O)O)NC(=O)[C@H](CCC(=O)O)NC(=O)[C@H](Cc1ccc(O)cc1)NC(=O)[C@H](CCC(=O)O)NC(=O)CCCCCNC(=S)Nc1ccc2c(c1)C(=O)OC21c2ccc(O)cc2Oc2cc(O)ccc21)C(=O)N[C@@H](Cc1ccc(O)cc1)C(=O)N[C@@H](CCC(=O)O)C(=O)NCC(=O)NCC(=O)NCC(=O)NCC(=O)N[C@@H](CO)C(=O)NCC(=O)NCC(=O)NCC(=O)NCC(=O)N[C@@H](CO)C(=O)N[C@@H](Cc1ccccc1)C(=O)N[C@@H](CC(N)=O)C(=O)N1CCC[C@H]1C(=O)N[C@@H](CCCNC(=N)N)C(=O)N[C@@H](Cc1c[nH]cn1)C(=O)NC(C)(C)C(=O)N[C@@H](CCC(=O)O)C(=O)NCC(=O)N[C@H](C(=O)N[C@@H](Cc1ccccc1)C(=O)N[C@H](C(=O)N[C@@H](CO)C(=O)N[C@@H](CC(=O)O)C(=O)N[C@H](C(=O)N[C@@H](CO)C(=O)N[C@@H](CO)C(=O)N[C@@H](Cc1ccc(O)cc1)C(=O)N[C@@H](CC(C)C)C(=O)N[C@@H](CCC(=O)O)C(=O)NCC(=O)N[C@@H](CCC(N)=O)C(=O)N[C@@H](C)C(=O)N[C@@H](C)C(=O)N[C@@H](CCCCN)C(=O)N[C@@H](CCC(=O)O)C(=O)N[C@@H](Cc1ccccc1)C(=O)N[C@H](C(=O)N[C@@H](C)C(=O)N[C@@H](Cc1c[nH]c2ccccc12)C(=O)N[C@@H](CC(C)C)C(=O)N[C@H](C(=O)N[C@@H](CCCCN)C(=O)NCC(=O)N[C@@H](CCCNC(=N)N)C(=O)NCC(=O)O)C(C)C)[C@@H](C)CC)C(C)C)[C@@H](C)O)[C@@H](C)O | refers to: released GLP-1 analogue | rhesus monkey, plasma | subcutaneous, 90 nmol/kg | 110 |
| CC(C)C[C@@H](NC(=O)[C@H](Cc1cccc2ccccc12)NC(=O)[C@H](CNC(=O)c1ccc(F)nc1)NC(=O)[C@H](CO)NC(=O)C1CCNCC1)C(=O)N[C@@H](CO)C(=O)N1CCC[C@H]1C(=O)N[C@H](C(N)=O)[C@@H](C)O | chemical stability | male human, serum | 1 mM, pH 7.4 | > 24 |
| O=c1[nH]c(Cc2ccccn2)nc2c1cnn2C1CCOCC1 | – | male human, plasma | oral, 0.5 mg, single dose | 1.33 |
| O[C@H]1CCCN[C@@H]1CCCn1cnc2c(Cl)c(Cl)ccc21 | – | human, plasma | oral, 100 mg single dose, solution, geometric mean | 3.84 |
| CC(C)C[C@H](NC(=O)[C@H](Cc1cccc2ccccc12)NC(=O)[C@H](CNC(=O)c1ccc(F)nc1)NC(=O)[C@H](CO)NC(=O)C1CCNCC1)C(=O)N[C@@H](CCO)C(=O)N1CCC[C@H]1C(=O)N[C@H](C(N)=O)[C@@H](C)O | chemical stability | male human, serum | 1 mM, pH 7.4 | > 24 |
| Oc1ccc2ccc3c4ccccc4cc4ccc1c2c43 | UPLC-AMS | human, plasma | oral, 100 ng of [14C]-BaP | 8.03 ± 11.2 |
| CC(C)C[C@H](NC(=O)[C@H](Cc1cccc2ccccc12)NC(=O)[C@H](CNC(=O)c1ccc(F)nc1)NC(=O)[C@H](CO)NC(=O)C1CCNCC1)C(=O)N[C@H](C(=O)N1CCC[C@H]1C(=O)N[C@H](C(N)=O)[C@@H](C)O)[C@@H](C)O | chemical stability | male human, serum | 1 mM, pH 7.4 | > 24 |
| COc1ccc(C[C@@H]2NC(=O)[C@H]([C@@H](C)O)NC(=O)[C@@H]3[C@@H]4CCN3C(=O)[C@@H]3Cc5cn(c6ccc(F)cc56)CCCCCCN(Cc5ccc(cc5)CCNC(=O)[C@]5(C)CCCN5C2=O)C(=O)CCC(=O)N[C@@H](C)C(=O)N[C@H](CNC(=O)CCCCC[N+](C)(C)C)C(=O)N[C@@H](Cc2cccc(c2)CNC(=O)CO4)C(=O)N3)cc1 | – | healthy fasted humans, plasma | oral, 100 mg single dose, geometric mean, added: Labrasol 1800 mg | 81.5 |

A few entries again:
| Compound | test | system | conditions | half-life [h] |
| --- | --- | --- | --- | --- |
| O=c1[nH]c(Cc2ccccn2)nc2c1cnn2C1CCOCC1 | – | male human, plasma | oral, 0.5 mg, single dose | 1.33 |
| CC(C)C[C@H](NC(=O)[C@H](Cc1cccc2ccccc12)NC(=O)[C@H](CNC(=O)c1ccc(F)nc1)NC(=O)[C@H](CO)NC(=O)C1CCNCC1)C(=O)N[C@@H](CCO)C(=O)N1CCC[C@H]1C(=O)N[C@H](C(N)=O)[C@@H](C)O | chemical stability | male human, serum | 1 mM, pH 7.4 | > 24 |
